Results collected from several papers.
Every numbered part comes from another study and shows a few of its results, in no order. Several values in a cell are separate wells, animals, samples, runs or records.
Sequence of UniProt P10398 (whole entry, looked up): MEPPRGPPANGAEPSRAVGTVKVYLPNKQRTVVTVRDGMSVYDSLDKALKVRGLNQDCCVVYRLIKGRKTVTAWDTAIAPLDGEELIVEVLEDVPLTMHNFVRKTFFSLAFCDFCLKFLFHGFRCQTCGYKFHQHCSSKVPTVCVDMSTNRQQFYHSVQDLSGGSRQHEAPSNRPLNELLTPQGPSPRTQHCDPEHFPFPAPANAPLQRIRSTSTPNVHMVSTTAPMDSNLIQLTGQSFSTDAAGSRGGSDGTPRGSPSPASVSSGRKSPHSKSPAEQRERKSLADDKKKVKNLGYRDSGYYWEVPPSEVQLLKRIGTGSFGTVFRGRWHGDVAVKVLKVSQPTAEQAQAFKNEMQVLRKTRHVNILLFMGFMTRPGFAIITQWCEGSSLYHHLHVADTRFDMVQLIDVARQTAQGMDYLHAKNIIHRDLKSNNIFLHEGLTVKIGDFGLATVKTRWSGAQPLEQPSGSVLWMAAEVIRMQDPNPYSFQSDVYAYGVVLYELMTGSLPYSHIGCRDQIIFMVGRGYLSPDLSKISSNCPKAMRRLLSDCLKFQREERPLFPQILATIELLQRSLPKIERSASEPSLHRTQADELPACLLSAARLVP
Sequence of UniProt Q02763 (whole entry, looked up): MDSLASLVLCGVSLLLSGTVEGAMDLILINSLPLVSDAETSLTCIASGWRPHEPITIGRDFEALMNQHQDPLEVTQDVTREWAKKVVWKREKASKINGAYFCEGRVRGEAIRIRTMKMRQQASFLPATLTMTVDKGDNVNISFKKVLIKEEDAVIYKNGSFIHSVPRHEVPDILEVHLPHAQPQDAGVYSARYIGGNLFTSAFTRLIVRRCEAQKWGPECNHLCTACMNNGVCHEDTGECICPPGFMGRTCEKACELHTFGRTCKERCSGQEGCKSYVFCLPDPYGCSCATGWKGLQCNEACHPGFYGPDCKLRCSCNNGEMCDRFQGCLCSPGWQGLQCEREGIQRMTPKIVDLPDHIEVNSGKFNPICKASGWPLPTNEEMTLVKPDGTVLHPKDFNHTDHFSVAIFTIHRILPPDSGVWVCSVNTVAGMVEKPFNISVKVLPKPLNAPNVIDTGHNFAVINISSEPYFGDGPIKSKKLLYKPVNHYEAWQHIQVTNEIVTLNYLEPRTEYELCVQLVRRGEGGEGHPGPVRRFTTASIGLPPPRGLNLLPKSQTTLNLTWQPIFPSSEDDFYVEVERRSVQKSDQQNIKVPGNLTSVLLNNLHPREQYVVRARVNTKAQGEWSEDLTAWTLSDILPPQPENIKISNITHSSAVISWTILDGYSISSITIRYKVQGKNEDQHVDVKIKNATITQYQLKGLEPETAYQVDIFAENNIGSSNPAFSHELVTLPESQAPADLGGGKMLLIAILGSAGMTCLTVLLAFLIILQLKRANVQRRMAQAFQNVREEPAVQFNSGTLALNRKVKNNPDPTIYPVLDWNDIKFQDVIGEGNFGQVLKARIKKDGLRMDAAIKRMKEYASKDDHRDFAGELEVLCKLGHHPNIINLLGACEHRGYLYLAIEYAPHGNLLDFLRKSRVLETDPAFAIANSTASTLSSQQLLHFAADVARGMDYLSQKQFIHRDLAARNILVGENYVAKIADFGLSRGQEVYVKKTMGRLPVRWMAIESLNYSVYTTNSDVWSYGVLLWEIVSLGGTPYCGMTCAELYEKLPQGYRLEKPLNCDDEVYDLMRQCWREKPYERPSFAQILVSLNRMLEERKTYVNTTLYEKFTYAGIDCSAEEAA
Sequence of UniProt Q9HC98 (whole entry, looked up): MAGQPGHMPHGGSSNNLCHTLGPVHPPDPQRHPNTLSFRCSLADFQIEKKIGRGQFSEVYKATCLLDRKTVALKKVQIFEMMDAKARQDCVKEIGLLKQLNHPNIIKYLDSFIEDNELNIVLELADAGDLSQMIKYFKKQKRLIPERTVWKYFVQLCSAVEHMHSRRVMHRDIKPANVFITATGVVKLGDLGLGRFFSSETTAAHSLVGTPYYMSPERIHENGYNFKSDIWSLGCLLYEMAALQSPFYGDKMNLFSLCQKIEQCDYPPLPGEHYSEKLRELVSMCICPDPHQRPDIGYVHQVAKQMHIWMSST
Sequence of UniProt Q04912 (whole entry, looked up): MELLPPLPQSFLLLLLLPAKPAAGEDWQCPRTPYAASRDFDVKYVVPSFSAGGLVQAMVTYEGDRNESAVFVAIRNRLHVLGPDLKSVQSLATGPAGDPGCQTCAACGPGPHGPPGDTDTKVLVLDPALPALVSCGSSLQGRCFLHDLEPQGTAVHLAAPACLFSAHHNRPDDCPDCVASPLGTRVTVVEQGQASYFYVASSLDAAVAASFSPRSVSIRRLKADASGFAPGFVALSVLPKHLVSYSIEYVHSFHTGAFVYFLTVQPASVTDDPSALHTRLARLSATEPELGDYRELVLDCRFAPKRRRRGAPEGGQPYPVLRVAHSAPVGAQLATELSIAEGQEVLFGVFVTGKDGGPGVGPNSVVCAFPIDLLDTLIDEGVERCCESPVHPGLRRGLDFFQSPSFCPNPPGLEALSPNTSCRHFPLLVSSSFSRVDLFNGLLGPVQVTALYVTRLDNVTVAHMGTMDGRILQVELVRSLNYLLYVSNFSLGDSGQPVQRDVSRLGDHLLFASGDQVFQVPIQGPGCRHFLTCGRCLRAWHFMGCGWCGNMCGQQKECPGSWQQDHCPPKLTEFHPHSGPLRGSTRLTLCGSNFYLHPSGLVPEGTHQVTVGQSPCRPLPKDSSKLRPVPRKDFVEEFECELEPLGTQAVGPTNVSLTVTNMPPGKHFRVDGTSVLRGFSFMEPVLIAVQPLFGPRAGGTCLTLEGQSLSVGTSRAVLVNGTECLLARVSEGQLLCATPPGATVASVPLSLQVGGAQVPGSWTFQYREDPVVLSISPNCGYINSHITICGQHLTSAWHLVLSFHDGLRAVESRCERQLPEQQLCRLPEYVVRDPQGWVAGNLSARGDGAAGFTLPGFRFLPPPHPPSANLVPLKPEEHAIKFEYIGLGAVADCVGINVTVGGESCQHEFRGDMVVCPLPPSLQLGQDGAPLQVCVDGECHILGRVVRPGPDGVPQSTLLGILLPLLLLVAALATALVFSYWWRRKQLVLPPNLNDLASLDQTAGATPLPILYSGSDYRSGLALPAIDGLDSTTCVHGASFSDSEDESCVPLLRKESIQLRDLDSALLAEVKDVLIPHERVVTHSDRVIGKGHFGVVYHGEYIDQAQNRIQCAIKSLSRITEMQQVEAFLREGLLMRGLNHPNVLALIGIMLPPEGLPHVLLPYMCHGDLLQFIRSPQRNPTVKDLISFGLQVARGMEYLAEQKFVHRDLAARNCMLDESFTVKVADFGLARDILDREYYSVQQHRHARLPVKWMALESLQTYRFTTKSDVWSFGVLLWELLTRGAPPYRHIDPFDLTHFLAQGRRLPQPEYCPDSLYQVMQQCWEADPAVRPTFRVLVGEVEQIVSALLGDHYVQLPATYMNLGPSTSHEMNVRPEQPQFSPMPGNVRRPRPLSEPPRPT
Sequence of UniProt Q12866 (whole entry, looked up): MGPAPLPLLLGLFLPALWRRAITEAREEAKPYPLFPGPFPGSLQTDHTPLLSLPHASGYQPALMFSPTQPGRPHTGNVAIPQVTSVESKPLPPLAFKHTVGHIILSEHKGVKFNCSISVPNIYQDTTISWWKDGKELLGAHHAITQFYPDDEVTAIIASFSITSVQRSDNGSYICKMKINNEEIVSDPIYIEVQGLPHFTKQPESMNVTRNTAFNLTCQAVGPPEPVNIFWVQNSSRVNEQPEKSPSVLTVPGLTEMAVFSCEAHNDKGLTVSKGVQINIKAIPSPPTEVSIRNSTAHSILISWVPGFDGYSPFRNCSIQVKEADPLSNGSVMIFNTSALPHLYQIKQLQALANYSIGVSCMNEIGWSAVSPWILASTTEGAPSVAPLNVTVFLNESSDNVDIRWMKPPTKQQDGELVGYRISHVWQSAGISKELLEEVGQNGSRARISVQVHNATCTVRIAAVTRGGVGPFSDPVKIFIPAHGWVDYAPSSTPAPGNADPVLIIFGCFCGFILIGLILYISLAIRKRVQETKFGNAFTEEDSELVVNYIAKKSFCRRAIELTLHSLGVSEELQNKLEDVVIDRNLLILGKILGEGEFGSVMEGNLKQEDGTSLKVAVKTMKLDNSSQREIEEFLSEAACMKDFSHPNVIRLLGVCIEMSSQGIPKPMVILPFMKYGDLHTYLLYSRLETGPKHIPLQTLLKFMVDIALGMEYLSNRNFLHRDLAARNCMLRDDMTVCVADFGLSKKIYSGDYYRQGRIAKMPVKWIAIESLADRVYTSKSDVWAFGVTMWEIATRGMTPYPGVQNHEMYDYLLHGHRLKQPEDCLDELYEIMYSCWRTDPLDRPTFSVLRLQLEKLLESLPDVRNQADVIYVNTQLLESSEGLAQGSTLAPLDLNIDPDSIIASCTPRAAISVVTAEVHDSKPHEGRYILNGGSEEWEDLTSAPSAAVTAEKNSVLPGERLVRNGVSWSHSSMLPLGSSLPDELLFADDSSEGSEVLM
Sequence of UniProt P36894 (whole entry, looked up): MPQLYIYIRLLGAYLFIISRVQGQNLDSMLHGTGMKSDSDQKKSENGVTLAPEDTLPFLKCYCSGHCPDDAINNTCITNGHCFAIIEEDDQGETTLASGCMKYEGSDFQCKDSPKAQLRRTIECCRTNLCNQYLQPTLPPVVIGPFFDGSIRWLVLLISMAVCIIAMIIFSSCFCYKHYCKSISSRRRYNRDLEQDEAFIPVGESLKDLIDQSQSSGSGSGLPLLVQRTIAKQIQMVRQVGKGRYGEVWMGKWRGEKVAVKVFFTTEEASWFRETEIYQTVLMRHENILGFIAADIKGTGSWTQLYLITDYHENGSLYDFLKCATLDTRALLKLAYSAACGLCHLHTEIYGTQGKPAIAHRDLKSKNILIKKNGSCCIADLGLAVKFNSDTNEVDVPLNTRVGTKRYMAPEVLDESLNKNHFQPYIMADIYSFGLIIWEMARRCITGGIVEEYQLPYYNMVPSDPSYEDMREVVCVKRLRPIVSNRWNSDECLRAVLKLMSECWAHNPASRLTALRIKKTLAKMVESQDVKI

Block 1
Cell line: mouse MPNST tumor cells
Technique: high-content nuclear imaging
Item: cell number
Tested at: 10 µM
Time: 12 h
Setting: mean of 2 replicates
Reference: plate mean
Direction: higher = more cells
Compound	nuclei count
CC[N+](C)(CC)CCOC(=O)C(O)(c1ccccc1)C1CCCCC1 (centres unmarked)	2.05 z-score
CC(=O)c1ccc(S(=O)(=O)NC(=O)NC2CCCCC2)cc1	-0.257 z-score and 0.435 z-score
COc1cc(N2CCOCC2)ccc1Nc1ncc(F)c(Nc2ccccc2NS(C)(=O)=O)n1	1.63 z-score
CC(=O)[C@@]1(O)CC[C@H]2[C@@H]3C[C@H](C)C4=CC(=O)C=C[C@]4(C)[C@@]3(F)[C@@H](O)C[C@@]21C	5.93 z-score
CNCCC(Oc1ccccc1OC)c1ccccc1 (centres unmarked)	4.04 z-score
Nc1nc(OCc2cc(Br)cs2)c2[nH]cnc2n1	1.51 z-score

Block 2
SMILES: O=C1c2ccccc2-c2n[nH]c3cccc1c23
Read-out: enzyme activity
Mode: inhibitor
Tested at: 0.5 µM
Reference: control
target	remaining activity [%]
NEK1 (Homo sapiens, UniProt Q96PY6)	70.7
WEE1 (Homo sapiens, UniProt P30291)	91.3
MST1R (Homo sapiens, UniProt Q04912)	103
EPHA3 (Homo sapiens, UniProt P29320)	94.2
RPS6KA2 (Homo sapiens, UniProt Q15349)	80.3
GRK7 (Homo sapiens, UniProt Q8WTQ7)	91.9
FGFR3 (Homo sapiens, UniProt P22607)	85.1
MERTK (Homo sapiens, UniProt Q12866)	83.7
MAPKAPK2 (Homo sapiens, UniProt P49137)	98.7
JAK3 (Homo sapiens, UniProt P52333)	74
CSNK1G3 (Homo sapiens, UniProt Q9Y6M4)	117
FGFR1 (Homo sapiens, UniProt P11362)	69.4
ULK2 (Homo sapiens, UniProt Q8IYT8)	114
TEK (Homo sapiens, UniProt Q02763)	92.2
MAPK3 (Homo sapiens, UniProt P27361)	102
TAOK2 (Homo sapiens, UniProt Q9UL54)	101
FRK (Homo sapiens, UniProt P42685)	95.1
MAP3K5 (Homo sapiens, UniProt Q99683)	47.8
ARAF (Homo sapiens, UniProt P10398)	105
TBK1 (Homo sapiens, UniProt Q9UHD2)	81.4
MAP3K14 (Homo sapiens, UniProt Q99558)	94.2
CSNK1G2 (Homo sapiens, UniProt P78368)	87.8
ACVR1B (Homo sapiens, UniProt P36896)	101
NEK6 (Homo sapiens, UniProt Q9HC98)	97.6
MAP2K2 (Homo sapiens, UniProt P36507)	94

Block 3
Medium: hydrocarbon/water
pH: 7.4
SMILES	logD
CC(C)C[C@@H]1NC(=O)[C@H](C)N(C)C(=O)[C@H](CC2CCCCC2)NC(=O)CN(CC(C)C)C(=O)[C@H]2CCCN2C(=O)[C@H](CC(C)C)NC(=O)[C@H](C)N(C)C(=O)[C@H](CC(C)C)NC(=O)Cn2cc(nn2)CN(C)C1=O	1.7
CC(C)C[C@@H]1NC(=O)CN(CCCOC(C)C)C(=O)[C@H](C)NC(=O)[C@H](CC(C)C)N(C)C(=O)[C@H]2CCCN2C(=O)[C@H](Cc2ccccc2)NC(=O)CN(CC2CCCCC2)C(=O)[C@H](C)NC(=O)[C@H](CC(C)C)N(C)C(=O)[C@H]2CCCN2C1=O	2.66
CCN1CC(=O)N[C@@H](CC(C)C)C(=O)N(C)[C@@H](C)C(=O)N[C@@H](CC(C)C)C(=O)N(C)Cc2cn(nn2)CC(=O)N[C@@H](CC(C)C)C(=O)N(C)[C@@H](C)C(=O)N[C@@H](CC(C)C)C(=O)N2CCC[C@@H]2C1=O	-0.305
CCCCCN1CC(=O)N[C@@H](Cc2ccccc2)C(=O)N2CCC[C@@H]2C(=O)N(C)[C@@H](CC(C)C)C(=O)N[C@@H](C)C(=O)N(Cc2ccc3c(c2)OCO3)CC(=O)N[C@@H](CC(C)C)C(=O)N2CCC[C@@H]2C(=O)N(C)[C@@H](CC(C)C)C(=O)N[C@@H](C)C1=O	2.59
CC(C)C[C@@H]1NC(=O)[C@H](C)N(C)C(=O)[C@H]2CCCN2C(=O)[C@H](CC(C)C)NC(=O)[C@H](C)N(C)C(=O)[C@@H](CC(C)C)N(C)C1=O	1.58
CCC[C@@H]1NC(=O)[C@H](C)N(C)C(=O)[C@H](CC(C)C)NC(=O)Cn2cc(nn2)CN(C)C(=O)[C@H](CC(C)C)NC(=O)[C@H](C)N(C)C(=O)[C@H](CC2CCCCC2)NC(=O)[C@H](CCC)N(C)C(=O)[C@H]2CCCN2C1=O	1.36

Block 4
Cell line: A-375
Tested at: 100 µM
Time: 18 h
Compound	viability
O=C(O)c1ccc(S(=O)(=O)N(Cl)Cl)cc1	89.9%
CCCCCCCCCCCCCCCC(=O)OC/C=C(C)/C=C/C=C(C)/C=C/C1=C(C)CCCC1(C)C	71.1%
COC(=O)c1ccccc1O	95.3%
C[N+](C)(C)C[C@H](O)CC(=O)[O-]	91.9%
COCCOC(=O)C1=C(C)NC(C)=C(C(=O)OC(C)C)C1c1cccc([N+](=O)[O-])c1 (centres unmarked)	14.1%
CCCC(=O)Nc1ccc(OCC(O)CNC(C)C)c(C(C)=O)c1 (centres unmarked)	104%
OC[C@H]1O[C@@H](c2ccc(F)c(Cc3cc4ccccc4s3)c2)[C@H](O)[C@@H](O)[C@@H]1O	80%

Block 5
Cell line: HH
Tested at: 2 µM
Time: 48 h
Reference: untreated
SMILES	viability [%]
CNC(=O)c1nn(C)c2c1C(C)(C)Cc1cnc(Nc3ccc(N4CCN(C)CC4)cc3)nc1-2	56.9
CC(C)N(CCC(=O)c1ccc2ccccc2c1)Cc1ccccc1	82.3
COc1cc(Nc2ncc(F)c(Nc3ccc4c(n3)N(COP(=O)(O)O)C(=O)C(C)(C)O4)n2)cc(OC)c1OC	92.9
CC1(COc2ccc3c(c2)ncn3-c2ccc3cccc(N4CCC(N)CC4)c3n2)COC1	81.3
C[C@@H](N)[C@H]1CC[C@H](C(=O)Nc2ccncc2)CC1	99.1

Block 6
SMILES: C[C@H](c1ccnc(Nc2nc3ccc(-c4cc(N(C)C)ncn4)cc3[nH]2)c1)N1CCN(C(=O)CC(F)(F)F)CC1
Technique: competition with immobilised ligand
Tested at: 0.1 µM
target	read-out	remaining binding
MAP4K5 (Homo sapiens, UniProt Q9Y4K4)	cell-free assay	96%
TNK1 (Homo sapiens, UniProt Q13470)	cell-free assay	100%
BMPR1A (Homo sapiens, UniProt P36894)	binding	97%
Myosin-IIIa (MYO3A, Homo sapiens, UniProt Q8NEV4)	binding	100%
ROS1 (Homo sapiens, UniProt P08922)	cell-free assay	100%
CSNK1G1 (Homo sapiens, UniProt Q9HCP0)	cell-free assay	100%

Mixed results
Structure (SMILES)	target	read-out	technique	tested at	endpoint	value
C[C@@H]1CN(c2ccc(-c3cc(C(=O)NCCOCCOCCOCCOCCOCCOCCOCCOCCOCCNC(=O)/C=C/c4[nH]cc(C(=O)N[C@@H](CC(N)=O)c5ccc(F)c(Cl)c5)c4-c4ccc(Cl)cc4F)ccc3F)cc2NC(=O)c2c[nH]c(=O)cc2C(F)(F)F)C[C@H](C)N1C	DDB1- and CUL4-associated factor 1 (DCAF1, Homo sapiens, UniProt Q9Y4B6)	thermal stability	DSF	5.5 µM	ΔTm	5.3 °C
